Results of several laboratories.
Parts stem from different laboratories: compare values within a part only.

Sample 1
Target: Ras GTPase-activating protein-binding protein 1, full length (G3BP1, Homo sapiens, UniProt Q13283)
Sequence of UniProt Q13283 (whole entry, looked up): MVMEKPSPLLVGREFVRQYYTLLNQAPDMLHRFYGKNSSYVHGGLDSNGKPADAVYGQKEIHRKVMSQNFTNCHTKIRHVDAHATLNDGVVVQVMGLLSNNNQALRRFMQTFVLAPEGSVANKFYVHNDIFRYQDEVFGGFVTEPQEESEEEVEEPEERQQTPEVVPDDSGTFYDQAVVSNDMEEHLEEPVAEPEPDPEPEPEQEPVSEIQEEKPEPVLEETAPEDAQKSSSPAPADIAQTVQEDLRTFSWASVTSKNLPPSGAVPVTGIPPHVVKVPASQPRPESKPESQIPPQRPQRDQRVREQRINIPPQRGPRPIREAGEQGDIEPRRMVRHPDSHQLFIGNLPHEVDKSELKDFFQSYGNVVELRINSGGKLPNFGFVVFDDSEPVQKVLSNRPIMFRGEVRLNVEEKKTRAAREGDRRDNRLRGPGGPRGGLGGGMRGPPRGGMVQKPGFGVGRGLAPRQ
Technique: RNA Bind-n-Seq
Molecule type: RNA
Sample: in vitro
Concentration: 200 nM
Notes: whole 134-nt RNA, ends assumed
With: 150 mM KCl
Baseline: input library
Reading: higher = stronger binding
Constant ends, left off below: GGGAGUUCUACAGUCCGACGAUC … UGGAAUUCUCGGGUGUCAAGG
Strand	log2 enrichment
UGGCCCUGGUGGCAUGCGGGGCGGAAGAGGUGGCCUCAUGGAUCGUGGUGGUCCCGGUGGAAUGUUCAGAGGUGGCCGUGGUGGAGACAG	0.00324
GUCCUGUGCUACACAUCGUAUGUACCGAAUCGGCCCCCCGGCCCCCCGGCCCCCCGGGGAAAGUAUUAUGUUACGCCGUUCGGAUCUGCA	0.0127
GUCCUGUGCUACACAUCGUAUGUACCGAAUCGGGAAAAAAGGAAAAAAGGAAAAAAGGAAAGUAUUAUGUUACGCCGUUCGGAUCUGCAC	-0.637
UAACUUUAGAGGAGGAUCUGACGGAUAUGGCAGUGGACGUGGAUUUGGGGAUGGCUAUAAUGGGUAUGGAGGAGGACCUGGAGGUGGCAA	0.383
CUGUGCUACACAUCGUAUGUACCGAAUCGGGGUUUUUGGGGAAAAAAAGGGGUUUUUGGGGAAAGUAUUAUGUUACGCCGUUCGGAUCUG	-0.0919

Sample 2
Target: Phosphate system positive regulatory protein PHO4, full length, GST-tagged (PHO4, Saccharomyces cerevisiae, UniProt P07270, residues 1-312)
Technique: competition protein-binding microarray
Molecule type: double-stranded DNA, one strand shown
Sample: in vitro
Concentration: 2 µM
Notes: whole 60-bp probe, lowest competitor level
With: Cbf1 competitor, 0.05 µM
Reading: higher = stronger binding
Constant ends, left off below: … GTCTTGATTCGCTTGACGCTGCTG
Residues (chain): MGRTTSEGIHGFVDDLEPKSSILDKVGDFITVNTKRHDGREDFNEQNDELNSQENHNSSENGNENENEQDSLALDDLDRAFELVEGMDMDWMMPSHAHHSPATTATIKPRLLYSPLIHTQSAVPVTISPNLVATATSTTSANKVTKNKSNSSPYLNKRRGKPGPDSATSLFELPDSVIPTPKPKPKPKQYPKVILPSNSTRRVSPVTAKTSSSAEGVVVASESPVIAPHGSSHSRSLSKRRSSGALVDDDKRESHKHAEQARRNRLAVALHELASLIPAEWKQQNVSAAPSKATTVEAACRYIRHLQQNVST
Strand	fluorescence intensity
CGGGCTGATCCCTTTATCGTGCATCTTGACCACTTT	4120 a.u.
GCCAGTAATTTACTACACGTGTATATATCAGAAAAA	18400 a.u.
TGGACAAGACCAAGCCAGGTGACGGAGTTAACGTTG	3690 a.u.
GACATGAAGTAGAGCAGCATGCAGACAGAATACATT	7510 a.u.
CTTGCCAGAGGCATCTGCTAAGGCGTCCCACAAATC	3200 a.u.
AGCAGCATTATCCATGACATGACAAGGATCTACCGA	3940 a.u.

Sample 3
Target: Histone acetyltransferase KAT6A, winged helix 1, GST fusion (KAT6A, Homo sapiens, UniProt Q92794, residues 1-85)
Technique: protein binding microarray
Molecule type: double-stranded DNA, one strand shown
Sample: in vitro
Concentration: not given
Notes: 8-mer, flanks averaged, mean of 2 arrays, mostly near background
Baseline: not given
Reading: higher = stronger binding
Target sequence (chain): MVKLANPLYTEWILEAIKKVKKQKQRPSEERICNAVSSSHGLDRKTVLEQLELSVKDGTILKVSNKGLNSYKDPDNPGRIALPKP
Strand	E-score
AGGCGGAT	0.161
GAACCCGC	0.392
ACCGGCGT	0.347
AAGACCAT	-0.125
CATCATTA	-0.025
GGCATGGA	-0.113

Other studies, line by line
Substance	target	assay	test system	conditions	how to read	measurement	result
PhoQ, residues 284 288 289 292 302 303 ALVSVA	PhoP, residues 12 14 15 18 19 LFHKL (Escherichia coli, UniProt P23836)	Sort-seq, measured: YFP reporter	E. coli	PhoQ-PhoP variant library, with: 10 µM Mg2+	baseline: high Mg2+ state, higher = stronger signaling	fold induction	5.22

A few entries again (sample 3):
Strand	E-score
ACCGGCGT	0.347
GAACCCGC	0.392
